Published values collected from several papers.
Each line is one published result; not all experiments were run side by side. Numbers after ± are the reported error.

SMILES	tested on	test	system	setting	scale	measurement	value
CC[C@H](C)CCCCC(=O)N[C@@H](CCN)C(=O)N[C@H](C(=O)N[C@@H](CCN)C(=O)N[C@H]1CCNC(=O)[C@H]([C@@H](C)O)NC(=O)[C@H](CCN)NC(=O)[C@H](CCN)NC(=O)[C@H](CC(C)C)NC(=O)[C@@H](Cc2ccccc2)NC(=O)[C@H](CCN)NC1=O)[C@@H](C)O	–	–	human, mild renal insufficiency, urine	intravenous, 0.75 mg/kg, 0-6 h, arithmetic mean	–	urinary excretion	1.5%
O=C(N[C@H](Cc1c[nH]c2ccccc12)C(=O)Nc1ccncc1)c1ccc(N2CCN(c3ccc(F)c(F)c3)CC2)cc1F	–	–	Swiss Webster mouse, female, fat	oral, 50 mg/kg, 2 h, 20% HPβCD vehicle	–	concentration	110 nM
O=C(Nc1cnccc1Cl)N1CCN(Cc2ccc3c(c2)OC(F)(F)O3)CC1	–	measured: Headache	human healthy young women	100 mg, multiple dose	–	adverse event incidence	66.7%
CC(C)NCCCC[C@@H]1NC(=O)[C@H](Cc2ccc(O)cc2)NC(=O)[C@H](Cc2ccccc2)NC(=O)CC[C@H](C(=O)N[C@@H](CCCCNC(C)C)C(=O)N[C@@H](CCCCNC(=O)[C@H](CCC(=O)O)NC(=O)[C@H](CCC(=O)O)NC(=O)[C@H](CCC(=O)O)NC(=O)CN2CCN(CC(=O)O)CCN(CC(=O)O)CCN(CC(=O)O)CC2)C(N)=O)NC(=O)CNC(=O)[C@H](Cc2ccc3ccccc3c2)NC(=O)[C@@H](CCCNC(=N)N)NC1=O [gallium-68 labelled]	–	–	mouse with PC-3 xenograft, bone	intravenous, 1 h	–	tissue uptake	0.21 %ID/g
O=C(O)c1cccc(C(=O)O)c1	–	–	betaine/ethylene glycol DES-water	DES mass fraction 0.10	–	apparent dissolution enthalpy	3.87 kcal/mol
Cc1cc(NC2CCN(C(=O)OC3CCN(C(=O)/C=C/CN(C)C)C3)CC2)n2ncc(C(C)C)c2n1 (centres unmarked)	–	Phase I dose escalation CTCAE v4.0, measured: Ascites	patients with advanced solid tumours	dose not given, all dose schedules any grade	–	patients with adverse event	6%
Cl.[2H]C([2H])([2H])CC(=O)c1cnc(NC(=O)C2CC2)cc1Nc1cccc(-c2ncn(C([2H])([2H])[2H])n2)c1OC	–	–	human, non-fasted	oral, 30 mg twice daily, day 14, multiple dose, tablet, geometric mean	–	terminal elimination rate constant	2.53e-05 s⁻¹
C[C@@H]1COCCN1c1cc(C2([S@](C)(=N)=O)CC2)nc(-c2cc[nH]c3nccc2-3)n1	–	–	Japanese advanced solid tumour patients	oral, 240 mg twice daily, any grade	–	Pyelonephritis incidence	16.7%
CCN1CCN(Cc2ccc(NC(=O)c3ccc(C)c(NC(=O)c4cncc(-c5cccs5)c4)c3)cc2C(F)(F)F)CC1	–	–	C57BL/6 mice, epithelial lining fluid	intraperitoneal, 15 mg/kg	–	mean residence time	2.53 h
C=CCN1CC(=O)N2[C@@H](Cc3ccc(O)cc3F)C(=O)N(Cc3cccc(N4CC(N5CCN(CC)CC5)C4)n3)C[C@@H]2N1C(=O)NCc1ccccc1	–	measured: decreased appetite	human advanced solid tumours	concentration not given, expansion grade ≥3	–	treatment-related adverse events	0%
Cc1onc(-c2ccccc2)c1C(=O)N1CCN(c2ccc([N+](=O)[O-])cc2Cl)CC1	THP-1	pyroptotic LDH release	–	2 µM, 40 min, added: LPS then nigericin	–	inhibition	-13.9%
CCCCC[C@H]1CC[C@H](c2ccc(OCC)c(F)c2F)CC1	–	–	rat, fetus	10 ng/mL in perfusate, low dose, mixture of 21 LCMs	–	fetal accumulation	1.12 ± 1.07 ng/g
Cc1nn(CC(F)(F)F)cc1Nc1ncc(Br)c(NCCCNC(=O)C2CCC2)n1	–	PAMPA	PBS	5 h, pH 7.4	–	effective permeability	3.73 ×10⁻⁶ cm/s
O=C(O)CCC(=O)O.[2H]C([2H])([2H])Oc1cc(C)c2[nH]ccc2c1CN1CC[C@@H](C2CC2)C[C@H]1c1ccc(C(=O)O)cc1	–	–	healthy Chinese subjects	50 mg, single ascending dose	–	TEAE decreased white cells	0%
N#CCNC(=O)c1ccc(-c2ccnc(Nc3ccc(N4CCOCC4=O)cc3)n2)cc1	–	–	healthy volunteers, plasma	dose not given, added: ritonavir multiple-dose	relative to: compound alone	Cmax increase	30%
CN(CCCNC(=O)c1cccc(C(=O)O)c1)CCCNC(=O)c1cc(NC(=O)c2cc(NC(=O)c3cc(NC(=O)c4cc(NC(=O)C[C@@H](N)CNC(=O)c5cc(NC(=O)c6cc(NC(=O)c7nc(NC(=O)c8nccn8C)cn7C)cn6C)cn5C)cn4C)cn3C)cn2C)cn1C	–	dynamic light scattering	0.1% DMSO in PBS	25 °C	–	critical aggregation concentration	4 µM
OC[C@H]1O[C@@](CO)(O[C@H]2O[C@H](CO)[C@@H](O)[C@H](O)[C@H]2O)[C@@H](O)[C@@H]1O	THP-1	pyroptotic LDH release	–	2 µM, 40 min, added: LPS then nigericin	–	inhibition	-13.5%
CC[C@H](C)[C@H](N)C(=O)N[C@H]1CSSC[C@@H](C(=O)N[C@H](C(N)=O)[C@@H](C)O)NC(=O)[C@H](CCCNC(=N)N)NC(=O)[C@H](Cc2c[nH]cn2)NC(=O)[C@H](Cc2c[nH]cn2)NC(=O)CNC(=O)[C@H](Cc2c[nH]c3ccccc23)NC(=O)[C@H](CC(=O)O)NC(=O)[C@H](CCC(N)=O)NC(=O)[C@H](C(C)C)NC(=O)[C@H](C(C)C)NC1=O	–	isocratic RP-HPLC, C18	32% acetonitrile, phosphate pH 7.4, 1% TFA	25 °C	–	retention factor	0.363 ± 0.02
C[C@@H]1OC(=O)[C@H](Cc2ccccc2)[C@H]1O	–	–	laying hens, female, liver	oral, 10.7 mg/kg dry feed, 7 days	–	share of total radioactive residue	11.6 % TRR
O=C(Nc1nc2cccc(-c3ccc(CN4CCS(=O)(=O)CC4)cc3)n2n1)C1CC1	–	measured: cardiac disorders	human rheumatoid arthritis patients	oral, 150 mg once daily, 4 weeks, regardless of relatedness	–	treatment-emergent adverse events	0%

A few entries again:
SMILES	tested on	test	system	setting	scale	measurement	value
CC[C@H](C)CCCCC(=O)N[C@@H](CCN)C(=O)N[C@H](C(=O)N[C@@H](CCN)C(=O)N[C@H]1CCNC(=O)[C@H]([C@@H](C)O)NC(=O)[C@H](CCN)NC(=O)[C@H](CCN)NC(=O)[C@H](CC(C)C)NC(=O)[C@@H](Cc2ccccc2)NC(=O)[C@H](CCN)NC1=O)[C@@H](C)O	–	–	human, mild renal insufficiency, urine	intravenous, 0.75 mg/kg, 0-6 h, arithmetic mean	–	urinary excretion	1.5%
O=C(N[C@H](Cc1c[nH]c2ccccc12)C(=O)Nc1ccncc1)c1ccc(N2CCN(c3ccc(F)c(F)c3)CC2)cc1F	–	–	Swiss Webster mouse, female, fat	oral, 50 mg/kg, 2 h, 20% HPβCD vehicle	–	concentration	110 nM
O=C(Nc1cnccc1Cl)N1CCN(Cc2ccc3c(c2)OC(F)(F)O3)CC1	–	measured: Headache	human healthy young women	100 mg, multiple dose	–	adverse event incidence	66.7%
